Results pooled from the literature.
Every numbered part comes from another study and shows a few of its results, in no order.
Sequence of UniProt Q8NG66 (whole entry, looked up): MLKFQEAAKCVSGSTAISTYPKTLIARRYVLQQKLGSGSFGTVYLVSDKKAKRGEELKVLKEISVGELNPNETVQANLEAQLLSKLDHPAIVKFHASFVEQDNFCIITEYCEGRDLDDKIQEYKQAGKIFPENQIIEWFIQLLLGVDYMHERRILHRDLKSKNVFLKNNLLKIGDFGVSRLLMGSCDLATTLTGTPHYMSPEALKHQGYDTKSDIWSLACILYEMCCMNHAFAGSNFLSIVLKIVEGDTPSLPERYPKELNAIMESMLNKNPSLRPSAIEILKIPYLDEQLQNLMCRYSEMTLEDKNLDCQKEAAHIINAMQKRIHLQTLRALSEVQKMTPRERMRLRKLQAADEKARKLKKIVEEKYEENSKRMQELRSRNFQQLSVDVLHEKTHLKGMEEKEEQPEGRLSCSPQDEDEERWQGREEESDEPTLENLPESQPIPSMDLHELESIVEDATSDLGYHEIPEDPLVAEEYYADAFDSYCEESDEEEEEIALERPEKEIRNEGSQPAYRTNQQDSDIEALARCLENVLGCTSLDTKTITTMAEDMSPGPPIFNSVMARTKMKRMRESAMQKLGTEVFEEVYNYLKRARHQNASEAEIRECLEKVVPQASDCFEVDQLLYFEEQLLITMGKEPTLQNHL
Sequence of UniProt P42684 (whole entry, looked up): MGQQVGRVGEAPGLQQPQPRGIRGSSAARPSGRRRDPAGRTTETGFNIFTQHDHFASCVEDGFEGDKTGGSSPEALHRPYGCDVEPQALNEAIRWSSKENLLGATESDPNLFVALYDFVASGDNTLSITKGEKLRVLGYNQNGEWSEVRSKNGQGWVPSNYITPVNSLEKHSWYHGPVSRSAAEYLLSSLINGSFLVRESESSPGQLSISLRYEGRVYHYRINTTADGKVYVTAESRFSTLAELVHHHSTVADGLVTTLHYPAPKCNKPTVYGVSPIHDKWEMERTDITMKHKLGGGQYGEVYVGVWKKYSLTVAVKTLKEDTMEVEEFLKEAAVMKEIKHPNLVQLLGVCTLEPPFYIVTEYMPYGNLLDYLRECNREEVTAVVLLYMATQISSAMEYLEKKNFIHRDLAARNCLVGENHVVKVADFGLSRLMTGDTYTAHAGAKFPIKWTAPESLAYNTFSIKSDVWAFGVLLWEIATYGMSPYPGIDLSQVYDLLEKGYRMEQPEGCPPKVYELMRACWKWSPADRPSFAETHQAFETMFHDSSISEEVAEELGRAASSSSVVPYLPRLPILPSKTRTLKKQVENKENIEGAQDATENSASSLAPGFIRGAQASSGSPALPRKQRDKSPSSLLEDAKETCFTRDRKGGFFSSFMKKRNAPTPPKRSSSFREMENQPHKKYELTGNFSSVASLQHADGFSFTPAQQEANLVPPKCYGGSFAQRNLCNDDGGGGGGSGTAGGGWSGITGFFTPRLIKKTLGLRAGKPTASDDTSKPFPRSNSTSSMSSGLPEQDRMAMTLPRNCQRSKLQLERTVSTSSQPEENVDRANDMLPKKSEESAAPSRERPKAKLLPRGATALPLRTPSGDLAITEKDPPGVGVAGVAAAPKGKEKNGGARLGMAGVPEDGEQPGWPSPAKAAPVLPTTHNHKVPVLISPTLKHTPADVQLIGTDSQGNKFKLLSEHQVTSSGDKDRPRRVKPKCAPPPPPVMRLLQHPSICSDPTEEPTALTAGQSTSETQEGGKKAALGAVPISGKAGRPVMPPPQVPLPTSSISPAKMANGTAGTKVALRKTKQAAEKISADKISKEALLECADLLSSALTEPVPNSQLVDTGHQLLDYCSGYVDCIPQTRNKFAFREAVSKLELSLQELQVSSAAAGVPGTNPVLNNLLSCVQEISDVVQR
Sequence of UniProt Q13470 (whole entry, looked up): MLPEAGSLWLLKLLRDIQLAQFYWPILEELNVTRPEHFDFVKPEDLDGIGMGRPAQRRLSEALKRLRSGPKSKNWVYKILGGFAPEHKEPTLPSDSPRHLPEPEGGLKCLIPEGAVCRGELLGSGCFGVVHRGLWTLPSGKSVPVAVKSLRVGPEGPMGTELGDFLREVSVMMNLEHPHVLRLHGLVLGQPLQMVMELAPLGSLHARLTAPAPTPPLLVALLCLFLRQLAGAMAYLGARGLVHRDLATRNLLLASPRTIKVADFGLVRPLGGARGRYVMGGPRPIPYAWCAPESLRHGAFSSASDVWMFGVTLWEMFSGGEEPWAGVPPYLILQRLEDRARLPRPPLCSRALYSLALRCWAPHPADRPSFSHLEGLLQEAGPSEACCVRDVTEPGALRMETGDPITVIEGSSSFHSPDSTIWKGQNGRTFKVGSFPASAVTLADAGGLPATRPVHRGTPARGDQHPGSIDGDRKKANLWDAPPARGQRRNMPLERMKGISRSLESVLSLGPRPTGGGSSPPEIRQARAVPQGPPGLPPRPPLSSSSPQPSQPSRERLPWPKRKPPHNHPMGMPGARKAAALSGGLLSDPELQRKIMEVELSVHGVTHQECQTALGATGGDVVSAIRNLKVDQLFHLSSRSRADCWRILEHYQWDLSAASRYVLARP
Sequence of UniProt P10721 (whole entry, unmodified, looked up): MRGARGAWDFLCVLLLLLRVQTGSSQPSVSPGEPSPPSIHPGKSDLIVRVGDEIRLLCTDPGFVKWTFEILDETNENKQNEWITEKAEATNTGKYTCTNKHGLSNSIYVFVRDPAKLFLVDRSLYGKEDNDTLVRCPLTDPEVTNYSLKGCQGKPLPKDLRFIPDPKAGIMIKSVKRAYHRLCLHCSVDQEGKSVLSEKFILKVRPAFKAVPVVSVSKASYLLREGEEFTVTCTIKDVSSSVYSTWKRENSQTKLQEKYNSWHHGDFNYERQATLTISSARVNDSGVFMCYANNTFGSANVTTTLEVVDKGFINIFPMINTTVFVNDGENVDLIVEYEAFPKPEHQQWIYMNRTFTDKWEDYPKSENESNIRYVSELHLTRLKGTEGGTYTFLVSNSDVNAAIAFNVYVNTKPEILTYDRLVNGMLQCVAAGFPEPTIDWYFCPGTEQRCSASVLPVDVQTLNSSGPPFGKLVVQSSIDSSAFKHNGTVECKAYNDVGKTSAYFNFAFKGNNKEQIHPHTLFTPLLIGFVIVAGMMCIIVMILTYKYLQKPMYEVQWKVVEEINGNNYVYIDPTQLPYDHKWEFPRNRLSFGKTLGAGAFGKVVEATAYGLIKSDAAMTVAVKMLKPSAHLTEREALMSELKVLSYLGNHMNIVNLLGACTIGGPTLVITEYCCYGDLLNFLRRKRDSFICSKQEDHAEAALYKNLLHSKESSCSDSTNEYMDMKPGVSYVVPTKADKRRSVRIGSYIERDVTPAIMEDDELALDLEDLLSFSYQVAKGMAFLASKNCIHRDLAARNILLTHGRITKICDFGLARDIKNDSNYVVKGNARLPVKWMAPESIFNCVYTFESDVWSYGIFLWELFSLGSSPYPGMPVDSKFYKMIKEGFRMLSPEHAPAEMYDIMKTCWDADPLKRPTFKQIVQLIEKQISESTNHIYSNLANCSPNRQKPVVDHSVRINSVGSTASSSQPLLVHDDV
Sequence of UniProt Q9Y4K4 (whole entry, looked up): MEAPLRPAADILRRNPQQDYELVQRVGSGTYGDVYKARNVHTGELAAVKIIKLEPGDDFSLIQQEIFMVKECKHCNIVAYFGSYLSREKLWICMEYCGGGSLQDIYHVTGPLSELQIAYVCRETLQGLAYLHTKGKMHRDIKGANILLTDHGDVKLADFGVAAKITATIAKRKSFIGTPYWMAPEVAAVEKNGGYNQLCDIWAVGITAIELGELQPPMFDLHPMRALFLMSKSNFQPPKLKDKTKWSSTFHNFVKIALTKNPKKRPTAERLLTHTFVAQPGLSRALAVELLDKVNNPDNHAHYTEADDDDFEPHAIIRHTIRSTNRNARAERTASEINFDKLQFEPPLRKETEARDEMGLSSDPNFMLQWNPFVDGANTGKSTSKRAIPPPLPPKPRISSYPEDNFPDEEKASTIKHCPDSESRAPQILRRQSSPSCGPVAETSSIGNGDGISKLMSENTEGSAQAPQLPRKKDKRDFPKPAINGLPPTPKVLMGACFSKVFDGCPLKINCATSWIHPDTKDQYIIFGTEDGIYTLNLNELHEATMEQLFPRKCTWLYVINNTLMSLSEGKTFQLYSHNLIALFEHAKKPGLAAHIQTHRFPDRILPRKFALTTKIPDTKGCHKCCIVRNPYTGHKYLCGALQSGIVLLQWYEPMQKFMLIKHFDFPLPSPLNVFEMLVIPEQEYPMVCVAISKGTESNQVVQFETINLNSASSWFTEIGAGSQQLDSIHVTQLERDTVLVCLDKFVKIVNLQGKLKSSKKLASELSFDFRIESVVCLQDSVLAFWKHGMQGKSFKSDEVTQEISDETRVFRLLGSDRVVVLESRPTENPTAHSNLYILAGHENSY
Sequence of UniProt Q9HC98 (whole entry, looked up): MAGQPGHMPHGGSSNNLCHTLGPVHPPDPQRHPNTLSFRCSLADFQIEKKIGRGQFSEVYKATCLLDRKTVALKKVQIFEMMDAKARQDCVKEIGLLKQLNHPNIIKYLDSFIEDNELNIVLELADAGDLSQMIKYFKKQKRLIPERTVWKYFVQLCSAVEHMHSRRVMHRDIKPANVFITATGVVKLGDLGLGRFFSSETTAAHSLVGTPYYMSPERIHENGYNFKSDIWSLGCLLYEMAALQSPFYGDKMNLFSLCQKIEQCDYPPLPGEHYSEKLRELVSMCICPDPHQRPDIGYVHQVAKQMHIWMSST
Sequence of UniProt Q00532 (whole entry, looked up): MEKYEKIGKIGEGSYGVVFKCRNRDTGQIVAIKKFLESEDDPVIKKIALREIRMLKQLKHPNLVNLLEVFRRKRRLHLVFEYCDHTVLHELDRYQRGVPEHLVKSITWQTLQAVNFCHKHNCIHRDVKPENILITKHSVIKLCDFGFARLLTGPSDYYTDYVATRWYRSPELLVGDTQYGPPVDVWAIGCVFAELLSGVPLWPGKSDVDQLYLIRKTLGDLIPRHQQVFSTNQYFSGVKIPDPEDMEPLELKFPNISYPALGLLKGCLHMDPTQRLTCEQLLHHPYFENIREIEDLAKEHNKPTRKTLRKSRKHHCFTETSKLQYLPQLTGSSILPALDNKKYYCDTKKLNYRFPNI

Block 1
SMILES: O=C(NS(=O)(=O)c1ccc(NCC2CCOCC2)c([N+](=O)[O-])c1)c1ccc(N2CCN(Cc3ccc(C(F)(F)F)cc3-c3ccc(Cl)cc3)CC2)cc1Oc1cnc2[nH]ccc2c1
Effect on: cell-free assay
Method: competition with immobilised ligand
Tested at: 1 µM
target	remaining binding [%]
Tyrosine-protein kinase ABL1, non-phosphorylated (ABL1, Homo sapiens, UniProt P00519)	100
CDKL1 (Homo sapiens, UniProt Q00532)	100
DYRK1A (Homo sapiens, UniProt Q13627)	63
NEK11 (Homo sapiens, UniProt Q8NG66)	97
TNK1 (Homo sapiens, UniProt Q13470)	96
PIK3C2B (Homo sapiens, UniProt O00750)	83
ERBB3 (Homo sapiens, UniProt P21860)	100
MAP4K5 (Homo sapiens, UniProt Q9Y4K4)	98
KIT (Homo sapiens, UniProt P10721, T670I/V559D)	100
STK38 (Homo sapiens, UniProt Q15208)	90

Block 2
Target: Max dimerization protein 1, bHLH-zipper, MAX partner unstated (MXD1, Homo sapiens, UniProt Q05195, residues 56-136)
Method: protein-binding microarray
Form: double-stranded DNA, one strand shown
Medium: in vitro
Tested at: not given
Setting: k-mer, scored over probes, only values ≥0.25
Reading: higher = stronger binding
Construct (chain): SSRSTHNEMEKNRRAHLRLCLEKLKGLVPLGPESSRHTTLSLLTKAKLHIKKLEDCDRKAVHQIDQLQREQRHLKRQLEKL
Oligonucleotide	E-score
ACAACGTG	0.417
ACCAGGCG	0.254
CGCACGAG	0.403
CAACGTGA	0.378
AGTACACG	0.349
CTCCCCAC	0.298
GCACCCAC	0.315
CGCGTGGA	0.404

Block 3
SMILES: CN(C)S(=O)(=O)c1ccc2c(c1)/C(=C/c1cc3c([nH]1)CCCC3)C(=O)N2
Effect on: enzyme activity
Action: inhibitor
Tested at: 0.5 µM
Baseline: control
target	remaining activity
NEK6 (Homo sapiens, UniProt Q9HC98)	90.7%
FGFR3 (Homo sapiens, UniProt P22607)	57.1%
ABL2 (Homo sapiens, UniProt P42684)	56.8%
CSNK1G2 (Homo sapiens, UniProt P78368)	93.8%
TBK1 (Homo sapiens, UniProt Q9UHD2)	80.6%
MAP2K2 (Homo sapiens, UniProt P36507)	104%

Block 4
Target: RNA binding protein fox-1 homolog 2, RRM domain, GST-SBP tag (RBFOX2, Homo sapiens, UniProt O43251-10, residues 100-194)
Method: RNA Bind-n-Seq
Form: RNA
Medium: in vitro
Tested at: 365 nM
Setting: natural RNA segment, single round, ends assumed
Baseline: no-protein control
Reading: higher = stronger binding
All sequences stand within: GGGAGUUCUACAGUCCGACGAUC … UGGAAUUCUCGGGUGCCAA
Construct (chain): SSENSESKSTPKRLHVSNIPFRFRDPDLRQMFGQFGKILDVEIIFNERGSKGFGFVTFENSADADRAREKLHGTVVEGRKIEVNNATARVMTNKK
Oligonucleotide	RBNS enrichment (R)
GUCAGUUAAAUUAUGGCCUACACUGAUCUGAGAUGUUCUCCACGUGAGCUGUCUUCAUUUCUCUGUGCUAUGUCCAGAUGUGGGGUUGCUGCAGCCGGGGUUCUAUGGCA	0.362
GAUGACAGAAAGCUUAUGCUGUCUACCACUGAACAGUGAUGGAGAUGGUGCUAAGUUUUUACAGUUGUCUUAGCCCCAGUGGUUCUCAAGGUGGGGCUCCUGGCCCAGCA	2.05
GGGCAGGGUUGGCUGGUAUGGUCAUCAGUAUGGGUCGUGACAGUCAAUGUCACUUCCUUCUCUAGGAUCUCUCAGAUUCUAUCUCCCCAAGACAGGCAGGGAAAUUCUAA	0.245
AUAAUCUGCUGCCAUUCCUUGUCUGAAUGGCUCAGCAGGAGUAACUGUUAUCUCCUCUCCUAAGGAGAUGAAGACCUAACAGGGGCACUGCGGCUGGGCUGCUUUAGGAG	0.204
ACUGUUCACUGUACAAAAGCUUACAGUUUUCCACAAGGACUUUAAUAACUAGCUGGGAAAAGACGAUGUAAUUAUUUCGGGGCUCUGCGGAACCUUCUCUGUACAGCGCC	0.17
UUGGACAGCAUUCUGGUGUUCAGCAACCAAUAUGGAAUAUUUGUCAUUAAAUCCAUAUCAGUCUUUUCCAUGUCAUUCUUCUUUGCCACACAUUAAAUGUCACUCAGCUC	0.59
UGCCAGGAAGGGUUAGGACCAACUACAAAUUAAUGUUGGUUGUCAAAUGUAGUGUGUUUCCCUAACUUUCUGUUUUUCCUGAGAAAAAAAAAUAAAUCUUUUAUUCAAAU	0.803
UUUAAAUGUUAACCAUUUGCAGAUUGCAUUAGCAUGUCUCUGCCUCUCUACCCUGAAAUGGGUGAAGGAGUCUUGUUCAGUUGUUUUAUAAGAGGUGCUCACAGAAAGAA	4.34

A few entries again (block 3):
target	remaining activity
FGFR3 (Homo sapiens, UniProt P22607)	57.1%
ABL2 (Homo sapiens, UniProt P42684)	56.8%
CSNK1G2 (Homo sapiens, UniProt P78368)	93.8%
